Results of several laboratories.
Each numbered part is a random draw from the data of one study; scales do not carry over between parts. Changes are numbered by the printed parent chain.

Sample 1
Target: Interferon regulatory factor 3, full length, phosphomimetic (IRF3, Homo sapiens, UniProt Q14653, residues 1-427, S386D/S396D/S398D/S402D/T404D/S405D)
Method: protein-binding microarray
Form: double-stranded DNA, one strand shown
Sample: in vitro
Concentration: 2540 nM top
Notes: 60-bp whole probe
Added: salmon DNA 0.4 mg/ml
Reference: random background probes
Reading: higher = stronger binding
Shared flanks, not repeated: GCCTAGCAC … GTCTTGATTCGCTTGACGCTGCTG
Residues (chain): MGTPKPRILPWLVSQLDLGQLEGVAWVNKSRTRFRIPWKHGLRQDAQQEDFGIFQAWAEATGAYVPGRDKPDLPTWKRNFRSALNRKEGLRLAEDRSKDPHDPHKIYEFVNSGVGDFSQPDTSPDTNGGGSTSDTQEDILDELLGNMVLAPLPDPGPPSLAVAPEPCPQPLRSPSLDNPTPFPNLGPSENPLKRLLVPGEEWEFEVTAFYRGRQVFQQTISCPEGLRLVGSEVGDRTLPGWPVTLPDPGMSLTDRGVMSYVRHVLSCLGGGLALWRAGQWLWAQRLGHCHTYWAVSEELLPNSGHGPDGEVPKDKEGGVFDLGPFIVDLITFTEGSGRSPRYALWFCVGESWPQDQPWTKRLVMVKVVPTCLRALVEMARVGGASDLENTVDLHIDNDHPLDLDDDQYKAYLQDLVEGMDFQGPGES
| Sequence | fitted relative affinity [z-score] |
| --- | --- |
| TTAGGACTGGGGTTTGGGTTAGTGCTA | -1.12 |
| ATAGATCTCAGTCTCGATTAGTGCTAG | 0.802 |
| TATTTTTTTGTAATCGAAATGTGCTAG | 0.918 |
| GAGGGTATCGACTTTCGGGACGTGCTA | 0.445 |
| TTAGAGATCGGGTATCGATTAGTGCTA | 0.169 |
| TTAGGAGTGGGTATCGGTTAGTGCTAG | 0.323 |
| TCATTTTAAGTTCTCTGACTGTGCTAG | 1.75 |
| CTGCTGATCGGTTGGGGTGGGTGCTAG | -0.0653 |
| GACGGTTTCGGTATCGGGCCGTGCTAG | 7.94 |
| GACGGTATCGGGTATCGTGACGTGCTA | 1.6 |
| GAGGGTATCGACACTGGGGACGTGCTA | -0.592 |
| GACGATCCCAGTATCGAGACGTGCTAG | 0.941 |
| GACGGTCTCGGACGGGGGACGTGCTAG | -0.00685 |
| CTCACTCTGTCCCTCTGTGAGTGCTAG | 0.614 |
| GCTGGTCTCTAACTCAAGATGTGCTAG | 0.501 |
| TTCATTATTGTCTTCCCCATGTGCTAG | 0.271 |
| GACCGTATCGGGTATCGGGACGTGCTA | 2.42 |
| TCATATATTATATATTTAACTGTGCTA | 0.476 |
| TTACGTTTCCTTTCCCTTTAGTGCTAG | 9.56 |

Sample 2
Target: ABI1, truncated, D143A, DHFR fusion (Arabidopsis thaliana)
Method: DHFR PCA, deep sequencing
Sample: yeast
Notes: methotrexate growth selection, single substitutions
Added: (+)-ABA 2500 µM
Reference: wild-type fitted maximum
Reading: higher = stronger binding
Starting sequence: PYL1, truncated, DHFR fusion (Arabidopsis thaliana); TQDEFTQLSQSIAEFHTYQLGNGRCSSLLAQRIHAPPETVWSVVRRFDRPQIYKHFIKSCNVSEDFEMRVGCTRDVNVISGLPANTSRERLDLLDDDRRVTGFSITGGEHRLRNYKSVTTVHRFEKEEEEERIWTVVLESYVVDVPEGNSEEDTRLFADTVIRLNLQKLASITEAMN
| Variant | relative binding score |
| --- | --- |
| K126E | 111% |
| V76Y | 87.5% |
| R46M | 99% |
| V43W | 86.5% |
| T160Y | 94.7% |
| V44N | 17.1% |
| V121R | -2.82% |
| R32C | 91.7% |
| Y115V | -3.44% |
| T106C | 107% |
| E128Y | 101% |
| D159F | 40.5% |
| V70S | 89.2% |
| N61A | 99.2% |
| V40P | 41.6% |
| T73F | 97.3% |
| K116I | 73.4% |
| S140D | 3.46% |

Sample 3
Target: CCNF, cyclin fold, Cln2 fusion (human)
Method: yeast growth competition, sequencing
Sample: yeast
Notes: strong parent motif
Reference: not given
Reading: higher = stronger binding
Starting sequence: PKMYT1 docking peptide (human); SFEPRNLLSLFED
| Variant | normalised enrichment score |
| --- | --- |
| F11W | 0.0565 |
| S9T | -0.196 |
| F11P | -0.835 |
| F11H | 0.253 |
| P4K | 0.197 |
| S1E | -0.221 |
| R5M | -0.518 |
| S9E | 0.824 |
| E3I | 1.16 |
| R5K F11L | -0.0325 |
| E3N | -0.19 |
| E3A | 2.32 |
| L10W | 0.559 |
| E12H | 0.192 |
| P4S | -1.04 |
| L10T | -0.458 |
| L10K | -1.18 |
| L8H | -0.311 |
| L7V | -0.546 |
| N6F | -0.369 |
| L7C | -1.02 |
| L8G | -0.391 |
| E3C | 2.08 |
| P4R | 0.127 |
| S9A | 0.481 |

Sample 4
Target: DBP, bZIP domain (human)
Method: DHFR protein complementation
Sample: yeast
Notes: single substitutions, most at no-binding floor
Reference: wild-type JUN-FOS pair
Reading: higher = stronger binding
Starting sequence: JUN, bZIP domain (human); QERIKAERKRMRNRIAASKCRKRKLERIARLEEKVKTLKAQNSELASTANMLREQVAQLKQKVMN; partner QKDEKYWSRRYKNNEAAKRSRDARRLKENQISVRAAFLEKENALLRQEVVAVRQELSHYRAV
| Variant | binding fitness |
| --- | --- |
| M51T | -1.32 natural log |
| A29Y | -1.48 natural log |
| E44R | -1.27 natural log |
| S43C | -1.43 natural log |
| L31M | -1.64 natural log |
| A29R | -1.47 natural log |
| E32H | -1.29 natural log |
| L31P | -1.49 natural log |
| I28L | -1.54 natural log |
| V35C | -1.54 natural log |
| L38T | -1.58 natural log |
| L45F | -1.51 natural log |
| E33A | -1.37 natural log |
| L31C | -1.38 natural log |
| R30E | -1.27 natural log |
| K34P | -1.46 natural log |
| I28V | -1.49 natural log |
| R30F | -1.43 natural log |
| N42A | -1.5 natural log |
| R53Q | -1.48 natural log |
| I28R | -1.29 natural log |
| S43I | -1.5 natural log |
| K39M | -1.47 natural log |
| R30S | -1.28 natural log |
| K39D | -1.43 natural log |

Excerpt of the above (sample 2):
| Variant | relative binding score |
| --- | --- |
| T160Y | 94.7% |
| N61A | 99.2% |
| E128Y | 101% |
| S140D | 3.46% |
| V44N | 17.1% |
| V121R | -2.82% |
